Assay results of several laboratories.
Each line is one published result; not all experiments were run side by side.
Cell line: Vero

CCCCOC(=O)Nc1cc2nc(C3CCCCC3)[nH]c2cc1N(C)C — IC50 (cytotoxicity, Alamar Blue; 3 days, 37 °C): > 100 µg/mL
CCCCC(=O)N1C(=O)/C(=C(/C)O)C(=O)C1CC(C)C (stereo not drawn) — IC50 (cytotoxicity, CellTiter-Glo; 72 h, 50% viability reduction): 39.7 µg/mL
CC(C)C[C@@H](CN1CCCCC1)N(C)c1ccnc2cc(C(F)(F)F)ccc12 — CC50 (cell growth or viability, resazurin; 72 h): 42.6 µM
CCCCCCC/C=C/C(=O)N1C(=O)/C(=C(\O)c2ccc(F)cc2)C(=O)C1CC(C)C (stereo not drawn) — IC50 (cytotoxicity, CellTiter-Glo; 72 h, 50% viability reduction): 13.4 µg/mL
Nc1ncnc2c1ncn2[C@@H]1O[C@H](COS(=O)(=O)NC(=O)CCCCCCCCCCC(=O)O)[C@@H](O)[C@H]1O — IC50 (cytotoxicity, MTT; 72 h): > 100 µM
CN(CCCN1CCOCC1)c1ccnc2cc(C(F)(F)F)ccc12 — CC50 (cell growth or viability, resazurin; 72 h): > 200 µM
O=C1C(=Cc2ccccc2Cl)CCCC1=Cc1ccccc1Cl — CC50 (cell growth or viability, MTT; 72 h): 171 µM
CCCCNC(=O)Nc1cc2nc(C3CCCCC3)[nH]c2cc1N(CC)CC — IC50 (cytotoxicity, Alamar Blue; 3 days, 37 °C): > 100 µg/mL
O=c1cc(C(F)(F)F)[nH]c2cc(C(F)(F)F)cc(Nc3ccc(F)cn3)c12 — LDH release (30 µM, 24 h; baseline: SDS control): ~20%
CCN(CC)c1cc2[nH]c(C3CCCCC3)nc2cc1NC(=O)c1ccc(C)cc1 — IC50 (cytotoxicity, Alamar Blue; 3 days, 37 °C): > 100 µg/mL
CCCCCCCCCC[C@@H](C)C(=O)NS(=O)(=O)OC[C@H]1O[C@@H](n2cnc3c(N)ncnc32)[C@H](O)[C@@H]1O — IC50 (cytotoxicity, MTT; 72 h): 39.4 µM
CCN(CC)c1cc2[nH]c(C3CCCCC3)nc2cc1NC(=O)c1cnccn1 — IC50 (cytotoxicity, Alamar Blue; 3 days, 37 °C): > 100 µg/mL
CN(c1ccnc2cc(Cl)ccc12)[C@@H](Cc1ccccc1)CN1CCOCC1 — CC50 (cell growth or viability, resazurin; 72 h): 33.5 µM
CCCCCCC/C=C/C(=O)N1C(=O)/C(=C(/C)O)C(=O)C1CCC(=O)O (stereo not drawn) — IC50 (cytotoxicity, CellTiter-Glo; 72 h, 50% viability reduction): 49.8 µg/mL
CCC[C@H](NC(=O)CN1C(=O)SC(=Cc2ccc3c(c2)OCO3)C1=O)C(=O)OCC — CC50 (cell growth or viability, resazurin; 72 h): > 100 µM
CCCCCCC/C=C/C(=O)N1C(=O)/C(=C(\O)c2ccc(O)cc2)C(=O)C1CC(C)C (stereo not drawn) — IC50 (cytotoxicity, CellTiter-Glo; 72 h, 50% viability reduction): 57.6 µg/mL
CCN(CC)C[C@H](Cc1ccccc1)N(C)c1ccnc2cc(Cl)ccc12 — CC50 (cell growth or viability, resazurin; 72 h): 79 µM
CCCNC(=O)Nc1cc2nc(C3CCCCC3)[nH]c2cc1N1CCCC1 — IC50 (cytotoxicity, Alamar Blue; 3 days, 37 °C): > 100 µg/mL
CC(C)C[C@@H](CN1CCCC1)N(C)c1ccnc2cc(Cl)ccc12 — CC50 (cell growth or viability, resazurin; 72 h): 47 µM
COC(=O)CCCCCCCCCCC(=O)NS(=O)(=O)OC[C@H]1O[C@@H](n2cnc3c(N)ncnc32)[C@H](O)[C@@H]1O — IC50 (cytotoxicity, MTT; 72 h): 14 µM
CN(c1ccnc2cc(Cl)ccc12)[C@@H](Cc1ccccc1)CN1CCCCC1 — CC50 (cell growth or viability, resazurin; 72 h): 69.7 µM
O=C(CCc1ccccc1)Nc1cc2nc(C3CCCCC3)[nH]c2cc1N1CCCC1 — IC50 (cytotoxicity, Alamar Blue; 3 days, 37 °C): > 100 µg/mL
C/C(O)=C1\C(=O)C(CC(C)C)N(C(=O)C=Cc2ccccc2)C1=O (stereo not drawn) — IC50 (cytotoxicity, CellTiter-Glo; 72 h, 50% viability reduction): 30.4 µg/mL
CCCCCCCCCCCCCCCCCCCC(=O)NS(=O)(=O)OC[C@H]1O[C@@H](n2cnc3c(N)ncnc32)[C@H](O)[C@@H]1O — IC50 (cytotoxicity, MTT; 72 h): 0.07 µM
CCN(CC)CCCC(C)Nc1ccnc2cc(Cl)ccc12 (stereo not drawn) — CC50 (cell growth or viability, MTT; 72 h): 492 µM
O=c1c(O)c(-c2cc(O)c(O)c(O)c2)oc2cc(O)cc(O)c12 — CC50 (cell growth or viability, MTT; 24 h): ~1100 µM
CCCCOC(=O)Nc1cc2nc(C3CCCCC3)[nH]c2cc1N(CC)CC — IC50 (cytotoxicity, Alamar Blue; 3 days, 37 °C): > 100 µg/mL
CCCCCCC/C=C/C(=O)N1C(=O)/C(=C(\O)c2ccncc2)C(=O)C1CC(C)C (stereo not drawn) — IC50 (cytotoxicity, CellTiter-Glo; 72 h, 50% viability reduction): 116 µg/mL
CCN(CC)c1cc2[nH]c(C3CCCCC3)nc2cc1NC(=O)c1ccc(F)cc1F — IC50 (cytotoxicity, Alamar Blue; 3 days, 37 °C): > 100 µg/mL
CC(C)C[C@@H](CN1CCCCC1)N(C)c1ccnc2cc(Cl)ccc12 — CC50 (cell growth or viability, resazurin; 72 h): 69.5 µM

For quick reference, copied from above:
CCCCCCC/C=C/C(=O)N1C(=O)/C(=C(\O)c2ccc(O)cc2)C(=O)C1CC(C)C (stereo not drawn) — IC50 (cytotoxicity, CellTiter-Glo; 72 h, 50% viability reduction): 57.6 µg/mL
CCCCNC(=O)Nc1cc2nc(C3CCCCC3)[nH]c2cc1N(CC)CC — IC50 (cytotoxicity, Alamar Blue; 3 days, 37 °C): > 100 µg/mL
CCN(CC)c1cc2[nH]c(C3CCCCC3)nc2cc1NC(=O)c1ccc(C)cc1 — IC50 (cytotoxicity, Alamar Blue; 3 days, 37 °C): > 100 µg/mL
O=c1c(O)c(-c2cc(O)c(O)c(O)c2)oc2cc(O)cc(O)c12 — CC50 (cell growth or viability, MTT; 24 h): ~1100 µM
CCCCOC(=O)Nc1cc2nc(C3CCCCC3)[nH]c2cc1N(CC)CC — IC50 (cytotoxicity, Alamar Blue; 3 days, 37 °C): > 100 µg/mL
